Results pooled from the literature.
Lines come from different studies, so protocols differ. ± marks the error that the study gave. In brackets after ≈: the same amount, converted by molar mass.
Sequence of UniProt P04062 (whole entry, unmodified, looked up): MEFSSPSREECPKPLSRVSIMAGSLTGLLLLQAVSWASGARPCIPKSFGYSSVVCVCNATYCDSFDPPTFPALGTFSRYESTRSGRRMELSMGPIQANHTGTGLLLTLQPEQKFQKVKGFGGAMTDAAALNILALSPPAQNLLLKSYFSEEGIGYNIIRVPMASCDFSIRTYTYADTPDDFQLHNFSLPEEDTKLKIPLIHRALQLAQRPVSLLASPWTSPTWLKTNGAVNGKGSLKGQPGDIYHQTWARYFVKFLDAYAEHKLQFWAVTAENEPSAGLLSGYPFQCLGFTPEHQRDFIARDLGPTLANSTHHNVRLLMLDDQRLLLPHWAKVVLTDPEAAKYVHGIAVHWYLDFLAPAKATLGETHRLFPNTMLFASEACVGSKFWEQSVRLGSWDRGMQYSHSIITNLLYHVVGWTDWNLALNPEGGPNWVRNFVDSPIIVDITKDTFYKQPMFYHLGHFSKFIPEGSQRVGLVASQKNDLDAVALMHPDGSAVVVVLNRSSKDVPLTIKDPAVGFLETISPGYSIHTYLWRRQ

CC[C@H](C)[C@H](NC(=O)[C@H](CC1CCCCC1)NC(=O)[C@@H](Cc1c[nH]c2ccccc12)NC(=O)[C@@H](N)CCCN)C(=O)N[C@@H](Cc1csc2ccccc12)C(=O)N[C@@H](Cc1cn(Cc2ccccc2)cn1)C(N)=O — IC50 (Staphylococcus aureus; ATCC 33591, methicillin-resistant): > 20 µg/mL
C=CC(=O)NCCCCCCCCOCc1cn(CCCCCCCCNC(=O)C=C)n[n+]1C — IC50 (Staphylococcus aureus; growth, turbidity OD600; 24 h): > 100 µM
COc1c(C)c(O)c(C(=O)C=Cc2ccccc2)c(OC)c1C — MBC (Staphylococcus aureus; microbial killing, broth dilution; ATCC25923): > 5000 µg/mL
COc1ccc(CN2CCCC(N3CCN(c4cccc(Cl)c4)CC3)C2)cc1OC (stereo not drawn) — relative translation (Trypanosoma cruzi; reporter mRNA translation, inhibitor, refers to: capped polyadenylated Renilla luciferase mRNA; cell-free extract; concentration not given; baseline: control RNA): 98.7%
CC1C=CC=CC(C)C2C=CC3CC(C)(O)C(Cl)C(C)C3C2C(=O)C(Cl)(Cl)C(=O)C(C)C(=O)O1 (stereo not drawn) — highest MIC (Staphylococcus aureus; MSSA and MRSA clinical isolates; 180 isolates): 0.2 µg/mL
C=CC(=O)NCCCCCCOCc1cn(CCCCCCNC(=O)C=C)nn1 — IC50 (Staphylococcus aureus; growth, turbidity OD600; 24 h): > 100 µM
CC(C)C1=CC2=CCC3C(C)(C(=O)OCCC[N+](C)(C)C)CCCC3(C)C2CC1 (stereo not drawn) — inhibition zone (Staphylococcus aureus; microbial growth, disc diffusion; ATCC29213; 15.6 µg/disc, 24 h): 14 mm
COc1cc2c(cc1OC)-c1cc3ccc(OC)c(OC)c3c[n+]1CC2.[Cl][Fe-]([Cl])([Cl])[Cl] — MIC50 (Staphylococcus aureus; 24 h, 37 °C): 165 µM
C=C1CNCC2Nc3c(F)cc(Br)cc3C12CCNS(=O)(=O)c1ccc(Cl)cc1 (stereo not drawn) — minimum resensitizing concentration (Staphylococcus aureus; MRSA ATCC BAA-44; with: amoxicillin/clavulanic acid): 4 µg/mL
COc1c(C)c(OS(=O)(=O)c2ccccc2)c(C)c(O)c1C(=O)/C=C/c1ccccc1 — MBC (Staphylococcus aureus; microbial killing, broth dilution; ATCC25923): > 5000 µg/mL
CC[C@H](C)[C@H](NC(=O)[C@H](CCCN)NC(=O)[C@H](CC(N)=O)NC(=O)[C@H](Cc1c[nH]c2ccccc12)NC(=O)[C@H](Cc1ccccc1)NC(=O)[C@H](CCCN)NC(=O)[C@H](CCCCNC(=N)N)NC(=O)[C@H](CC(C)C)NC(=O)[C@H](Cc1c[nH]c2ccccc12)NC(=O)[C@H](CCCN)NC(=O)[C@H](CCCCNC(=N)N)NC(=O)[C@H](CC(C)C)NC(=O)CNC(C)=O)C(=O)N[C@@H](CCCN)C(=O)N[C@@H](CCCCNC(=N)N)C(N)=O — MIC fold change (Staphylococcus aureus; concentration not given, with: MgCl2 1 mM; baseline: no added salt): 1 fold
CC(=O)N[C@@H](CCCCN)C(=O)N1CCC[C@H]1C(=O)N[C@H](C(=O)N[C@@H](Cc1ccccc1)C(=O)N[C@@H](CCC(N)=O)C(=O)N[C@@H](Cc1ccccc1)C(=O)N[C@@H](CC(C)C)C(=O)N[C@@H](Cc1ccccc1)C(=O)N[C@@H](Cc1c[nH]cn1)C(=O)N[C@@H](CCC(=O)O)C(N)=O)C(C)C — unhealed wound area (Staphylococcus aureus; USA300, BALB/c mice, skin wound infection; topical, 100 µL twice daily, day 7; baseline: initial): 69.9%
C=CS(=O)(=O)NCCCCCCOCc1cn(CCCCCCNS(=O)(=O)C=C)n[n+]1C — IC50 (Staphylococcus aureus; growth, turbidity OD600; 24 h): > 100 µM
COc1c(C)c(OC(=O)c2ccc3ccccc3c2)c(C)c(O)c1C(=O)/C=C/c1ccccc1 — MBC (Staphylococcus aureus; microbial killing, broth dilution; ATCC25923): > 5000 µg/mL
CCCCCCCCCC(=O)N[C@@H](Cc1c[nH]c2ccccc12)C(=O)N[C@H](CC(N)=O)C(=O)N[C@@H](CC(=O)O)C(=O)N[C@@H]1C(=O)NCC(=O)N[C@@H](CCCNC(=O)OC2/C=C/CCCCC2)C(=O)N[C@@H](CC(=O)O)C(=O)N[C@H](C)C(=O)N[C@@H](CC(=O)O)C(=O)NCC(=O)N[C@H](CO)C(=O)N[C@@H]([C@H](C)CC(=O)O)C(=O)N[C@@H](CC(=O)c2ccccc2N)C(=O)O[C@@H]1C (stereo partly drawn) — peak heat flow time (Staphylococcus aureus; planktonic bacterial growth, isothermal microcalorimetry; MSSA; 2.5 µg/mL, 24 h, 37 °C, with: TAG hydrogel): 0 h
CC(C)c1ccc2c(c1)CCC1C(C)(CN(CC(O)C[N+](C)(C)C)CC(O)C[N+](C)(C)C)CCCC21C (stereo not drawn) — inhibition zone (Staphylococcus aureus; microbial growth, disc diffusion; ATCC29213; 31.2 µg/disc, 24 h): 11 mm
C=C(NC(=O)c1csc(-c2nc3c(cc2O)-c2nc(cs2)C(=O)NC(C(C)O)C(=O)NC(=C(C)OC)c2nc(cs2)C(=O)NC2c4nc(cs4)C(=O)NC(COC(=O)c4c5c6c(cccc6n4O)COC(=O)C(OC4CC(C)(O)C(N(C)C)C(C)O4)C2OC5)c2nc-3cs2)n1)C(N)=O (stereo not drawn) — post-antibiotic effect (Staphylococcus aureus; ATCC 43300 MRSA; 1/2×MIC, 3 h exposure): 0.87 ± 0.16 h
CC[C@H](C)[C@H](NC(=O)[C@H](CC1CCCCC1)NC(=O)[C@H](Cc1ccccc1)NC(=O)[C@@H](N)CCCN)C(=O)N[C@H](Cc1ccccc1)C(=O)N[C@@H](Cc1cn(Cc2ccccc2)cn1)C(N)=O — IC50 (Staphylococcus aureus; ATCC 33591, methicillin-resistant): > 20 µg/mL
C=C(C)C(=O)NCCCCCCOCc1cn(CCCCCCNC(=O)C(=C)C)n[n+]1C — IC50 (Staphylococcus aureus; growth, turbidity OD600; 24 h): > 100 µM
O=C(Oc1cccccc1=O)c1ccc([N+](=O)[O-])cc1 — MIC80 (Staphylococcus aureus; microbial growth, broth dilution; ATCC29213): 16.5 µM (≈ 4.48 µg/mL)
C[n+]1nn(CCCCCCN2C(=O)C=CC2=O)cc1COCCCCCCN1C(=O)C=CC1=O — IC50 (Staphylococcus aureus; growth, turbidity OD600; 24 h): > 100 µM
CCCC(=O)Oc1c(C)c(OC)c2c(c1C)OC(=O)[C@@H](CC)[C@]2(O)/C=C/c1ccccc1 (racemic) — MBC (Staphylococcus aureus; microbial killing, broth dilution; ATCC25923): > 5000 µg/mL
C=CS(=O)(=O)NCCCCOCc1cn(CCCCNS(=O)(=O)C=C)nn1 — IC50 (Staphylococcus aureus; growth, turbidity OD600; 24 h): > 100 µM
CCCCCCN1C[C@H](O)[C@@H](O)[C@H](O)[C@@H]1CO — IC50 (GBA1 (Homo sapiens, UniProt P04062, R534H); inhibitor, 4MU-β-D-glucopyranoside; with: 4MU-β-D-glucopyranoside): 1000 µM
O=c1c(O)ccccc1O — MIC80 (Staphylococcus aureus; microbial growth, broth dilution; ATCC29213): 66.7 µM (≈ 9.21 µg/mL)
CC(C)[C@H]1NC(=O)[C@H](Cc2ccccc2)NC(=O)[C@@H](C(C)C)NC(=O)[C@@H](C)NC(=O)[C@H](CO)NC(=O)[C@@H](Cc2c[nH]c3ccccc23)NC(=O)[C@@H](CO)NC1=O — MIC90 (Staphylococcus aureus; broth dilution): > 50 µM
CC(CCCOC(=O)CCC[N+](C)(C)C)C1CCC2C3C(OC(=O)CCC[N+](C)(C)C)CC4CC(OC(=O)CCC[N+](C)(C)C)CCC4(C)C3CC(OC(=O)CCC[N+](C)(C)C)C12C (stereo not drawn) — inhibition zone (Staphylococcus aureus; microbial growth, disc diffusion; ATCC29213; 15.6 µg/disc, 24 h): 7 mm
CCCC[C@H](NC(=O)[C@@H](N)CCCN)C(=O)N[C@@H](CC1CCCCC1)C(=O)N[C@H](C(=O)N[C@H](Cc1ccccc1)C(=O)N[C@@H](Cc1cn(Cc2ccccc2)cn1)C(N)=O)[C@@H](C)CC — IC50 (Staphylococcus aureus; ATCC 33591, methicillin-resistant): > 20 µg/mL
O=C1C=CC(=O)N1CCCCCCOCc1cn(CCCCCCN2C(=O)C=CC2=O)nn1 — IC50 (Staphylococcus aureus; growth, turbidity OD600; 24 h): > 100 µM
CC(NC(=O)c1ccccc1)C(CCCCCCCCCCCCCCC(=O)CCCCCCCC(OC(=O)c1ccccc1)C(C)NC(=O)c1ccccc1)OC(=O)c1ccccc1 (stereo not drawn) — growth inhibition (Staphylococcus aureus; resazurin; ATCC 12600; 50 µM): -15%
CC(CCCOC(=O)CCC[N+](C)(C)C)C1CCC2C3CCC4CC(OC(=O)CCC[N+](C)(C)C)CCC4(C)C3CCC12C (stereo not drawn) — inhibition zone (Staphylococcus aureus; microbial growth, disc diffusion; ATCC29213; 250 µg/disc, 24 h): 17 mm
CC[C@H](C)[C@H](NC(=O)[C@H](CC1CCCCC1)NC(=O)[C@@H]1CCCN1C(=O)[C@@H](N)CCCN)C(=O)N[C@H](Cc1ccccc1)C(=O)N[C@@H](Cc1cn(Cc2ccccc2)cn1)C(N)=O — IC50 (Staphylococcus aureus; ATCC 33591, methicillin-resistant): > 20 µg/mL
CC(CCCOC(=O)CCC[N+](C)(C)C)C1CCC2C3CCC4CC(OC(=O)CCC[N+](C)(C)C)CCC4(C)C3CC(OC(=O)CCC[N+](C)(C)C)C12C (stereo not drawn) — inhibition zone (Staphylococcus aureus; microbial growth, disc diffusion; ATCC29213; 31.2 µg/disc, 24 h): 20 mm
CC[C@H](C)[C@H](NC(=O)[C@H](CC1CCCCC1)NC(=O)[C@@H](CC(C)C)NC(=O)[C@@H](N)CCCN)C(=O)N[C@H](Cc1ccccc1)C(=O)N[C@@H](Cc1cn(Cc2ccccc2)cn1)C(N)=O — IC50 (Staphylococcus aureus; ATCC 33591, methicillin-resistant): > 20 µg/mL
N=C(N)NCCC[C@@H]1NC(=O)[C@H](CCCNC(=N)N)NC(=O)[C@@H](CCCNC(=N)N)NC(=O)[C@@H](CCCNC(=N)N)NC(=O)[C@@H](C(c2ccccc2)c2ccccc2)NC(=O)[C@H](Cc2c[nH]c3ccccc23)NC(=O)[C@@H](C(c2ccccc2)c2ccccc2)NC1=O — biofilm reduction (Staphylococcus aureus; MRSA ATCC BAA-1556; 2 × MIC, 24 h, pre-formed biofilm): 63 to 69%
C=C1CN(S(=O)(=O)c2ccc([N+](=O)[O-])cc2)CC2Nc3c(F)cc(Br)cc3C12CCNS(=O)(=O)c1ccc(Cl)cc1 (stereo not drawn) — minimum resensitizing concentration (Staphylococcus aureus; MRSA ATCC BAA-44; with: amoxicillin/clavulanic acid): > 32 µg/mL

A few entries again:
O=C(Oc1cccccc1=O)c1ccc([N+](=O)[O-])cc1 — MIC80 (Staphylococcus aureus; microbial growth, broth dilution; ATCC29213): 16.5 µM (≈ 4.48 µg/mL)
CC(C)c1ccc2c(c1)CCC1C(C)(CN(CC(O)C[N+](C)(C)C)CC(O)C[N+](C)(C)C)CCCC21C (stereo not drawn) — inhibition zone (Staphylococcus aureus; microbial growth, disc diffusion; ATCC29213; 31.2 µg/disc, 24 h): 11 mm
C=C(NC(=O)c1csc(-c2nc3c(cc2O)-c2nc(cs2)C(=O)NC(C(C)O)C(=O)NC(=C(C)OC)c2nc(cs2)C(=O)NC2c4nc(cs4)C(=O)NC(COC(=O)c4c5c6c(cccc6n4O)COC(=O)C(OC4CC(C)(O)C(N(C)C)C(C)O4)C2OC5)c2nc-3cs2)n1)C(N)=O (stereo not drawn) — post-antibiotic effect (Staphylococcus aureus; ATCC 43300 MRSA; 1/2×MIC, 3 h exposure): 0.87 ± 0.16 h
